Experimental data from different studies.
Lines come from different studies, so protocols differ.
Organism: Bacillus subtilis

Compound | test | system | conditions | MIC
CCOC1(C)CC2C=CC3C(C)C=CC=CC(C)OC(=O)C(C)C(=O)C(Cl)(Cl)C(=O)C3C2C(C)C1O (stereo not shown) | microbial growth, broth dilution |  |  | > 3.2 µg/mL
CN1CCC(NCCC2(Cc3ccc(Cl)cc3)CCCCC2)CC1 | microbial growth | 168 | 10 h | 100 µM
CC1C=CC=CC(C)C2C=CC3CC(C)(O)C(OCc4ccccc4)C(C)C3C2C(=O)C(Cl)(Cl)C(=O)C(C)C(=O)O1 (stereo not shown) | microbial growth, broth dilution |  |  | 0.4 µg/mL
CCCCCC/C=C\CCCCCCC[C@@H](O)Cc1cc(O)cc(O)c1 | microbial growth, broth dilution | 168 |  | 8 µg/mL
COc1ccc(-c2csc(N/N=C(\C)c3ccc4c(c3)sc3nc(=O)c(C#N)cn34)n2)cc1 | broth microdilution |  |  | < 47 µg/mL
Nc1nc2ccc(Oc3ccc4nc(N)sc4c3)cc2s1 | broth microdilution | 3610 | 20 h, 37 °C | 49 to 64 µg/mL
S=c1n(CN2CCN(c3ccccn3)CC2)nc(C23CC4CC(CC(C4)C2)C3)n1-c1ccccc1 | two-fold dilution | IFO 3007 | 24 h, 36 °C | 0.5 µg/mL
CN(C)c1ccc2c(CC(=O)NCCCn3cc(CCCCC(=O)Oc4ccccc4C(=O)c4cc(Cl)c(Cl)n4-c4c(C(=O)c5ccccc5O)[nH]c(Cl)c4Cl)nn3)cc(=O)oc2c1 | microbial growth, broth dilution | 168 | 20 h | 1 µg/mL
C/C(=N\NC(N)=S)c1ccc2c(c1)sc1nc(=O)c(C#N)cn12 | microbial growth, broth dilution |  |  | < 59 µg/mL
COc1ccccc1N1CCN(Cn2nc(C34CC5CC(CC(C5)C3)C4)n(-c3ccccc3)c2=S)CC1 | two-fold dilution | IFO 3007 | 24 h, 36 °C | 1 µg/mL
COC1C(C)C2C(C=CC3C(C)C=CC=CC(C)OC(=O)C(C)C(=O)C(Cl)(Cl)C(=O)C32)CC1(C)O (stereo not shown) | microbial growth, broth dilution |  |  | 6.4 µg/mL
COc1ccccc1C(=O)c1[nH]c(Cl)c(Cl)c1-n1c(C(=O)c2ccccc2OC)cc(Cl)c1Cl | microbial growth, broth dilution | 168 | 20 h | 32 µg/mL
CCCCCCSCC1OC(OC2C(N)CC(N)C(OC3OC(CN)C(O)CC3N)C2O)C(O)C(N)C1O (stereo not shown) |  | 168 |  | 150 µg/mL
CC1C=CC=CC(C)C2C=CC3CC(C)(O)C(Br)C(C)C3C2C(=O)C(Cl)(Cl)C(=O)C(C)C(=O)O1 (stereo not shown) | microbial growth, broth dilution |  |  | 0.05 µg/mL
Oc1c(Cl)cc(Cl)c2cccnc12 | microbial growth, agar dilution | ATCC6633 |  | 37.4 µM
COC(=O)CCCCc1cn(CCCNC(=O)CCc2ccc3n2[B-](F)(F)[N+]2=C(C)C=C(C)C2=C3)nn1 | microbial growth, broth dilution | 168 | 20 h | > 64 µg/mL

Some of these lines once more:
Compound | test | system | conditions | MIC
Nc1nc2ccc(Oc3ccc4nc(N)sc4c3)cc2s1 | broth microdilution | 3610 | 20 h, 37 °C | 49 to 64 µg/mL
S=c1n(CN2CCN(c3ccccn3)CC2)nc(C23CC4CC(CC(C4)C2)C3)n1-c1ccccc1 | two-fold dilution | IFO 3007 | 24 h, 36 °C | 0.5 µg/mL
